Measurements from different studies.
Each line is one published result; not all experiments were run side by side. ± gives the spread as reported.
Medium: plasma

SMILES = CN[C@@H](CCOc1cccc2ccccc12)c1ccccc1; species = healthy male humans; route = oral; dose = 60 mg of dapoxetine; AUC(0-inf) = 223 ± 160 ng·h/mL
SMILES = [2H]C([2H])([2H])NC(=O)c1ccc(N2C(=S)N(c3ccc(C#N)c(C(F)(F)F)c3)C(=O)C2(C)C)cc1F; species = healthy male humans; route = oral; dose = 80 mg; setting = fasting, soft capsules; AUC(0-inf) = 335000 ± 61700 ng·h/mL
SMILES = CC(C)(O)c1ncc([S@](N)(=O)=NC(=O)Nc2c3c(cc4c2CCC4)CCC3)s1; species = healthy human fasted; route = oral; dose = 300 mg single dose; setting = CS formulation; AUC(0-inf) = 63700 ng·h/mL
SMILES = O=C(CCc1ccc(CNC(C(=O)O)C2CCCCC2)cn1)NO (stereo not shown); species = healthy male humans; route = oral; dose = 60 mg; setting = single dose, geometric mean; AUC(0-inf) = 438 ng·h/mL
SMILES = Cn1c(=O)oc2ccc(-c3ccc(CC(C#N)NC(=O)C4CNCCCO4)c(F)c3)cc21 (stereo not shown); species = human; dose = 10 mg once daily; time = day 28; setting = geometric mean; AUC(0-inf) = 1600 ng·h/mL
SMILES = CCc1c2c(nc3ccc(O)cc13)-c1cc3c(c(=O)n1C2)COC(=O)[C@]3(O)CC; species = human patients; route = intravenous; dose = 12 mg/m2 of parent drug; AUC(0-inf) = 136 ng·h/mL
SMILES = O=C(CCc1ccc(CNC(C(=O)OC2CCCC2)C2CCCCC2)cn1)NO (stereo not shown); species = human; route = oral; dose = 50 mg single dose; setting = geometric mean; AUC(0-inf) = 189 ng·h/mL
SMILES = Cc1[nH]nc2c1N=C(c1ccccc1Cl)c1cnc(N3CCOCC3)cc1N2; measured = total radioactivity; species = human male; route = oral; dose = 10 mg; AUC(0-inf) = 2480 h·ng eq/mL
SMILES = CC(=O)N[C@H](CC(=O)O)C(=O)N[C@H](Cc1c[nH]c2ccccc12)C(=O)N[C@H](Cc1ccccc1)C(=O)N[C@H](CCCCN)C(=O)N[C@H](C)C(=O)N[C@H](Cc1ccccc1)C(=O)N[C@H](Cc1ccc(O)cc1)C(=O)N[C@H](CC(=O)O)C(=O)N[C@H](CCCCN)C(=O)N[C@@H](C(=O)N[C@H](C)C(=O)N[C@H](CCC(=O)O)C(=O)N[C@H](CCCCN)C(=O)N[C@H](Cc1ccccc1)C(=O)N[C@H](CCCCN)C(=O)N[C@H](CCC(=O)O)C(=O)N[C@H](C)C(=O)N[C@H](Cc1ccccc1)C(N)=O)C(C)C; species = human, statin-treated high-risk CHD, male; route = oral; dose = 500 mg daily; time = day 13; setting = mean, detected subjects only; AUC(0-inf) = 111 ng·h/mL
SMILES = CN1CCC[C@]1(C)/C=C/S(=O)(=O)NC(=O)Nc1c2c(cc3c1CCC3)CCC2; species = human; route = oral; dose = 12.5 mg twice daily; time = day 14; setting = multiple ascending dose; AUC(0-inf) = 29400 ng·h/mL

Some of these lines once more:
SMILES = Cn1c(=O)oc2ccc(-c3ccc(CC(C#N)NC(=O)C4CNCCCO4)c(F)c3)cc21 (stereo not shown); species = human; dose = 10 mg once daily; time = day 28; setting = geometric mean; AUC(0-inf) = 1600 ng·h/mL
